Experimental data of several laboratories.
Compare with care: the assays were run in different laboratories. “And” joins repeats or separate records; there may be more than shown. ± marks the error that the study gave.
B1: PCK1 S62D/T66E (Arabidopsis thaliana, UniProt Q9T074); sequence looked up; chain MSAGNGNATNGDGGFSFPKGPVMPKITTGAAKRGSGVCHDDSGPTVNATTIDELHSLQKKRDAPTEPINQNAAAAFAAVSEEERQKIQLQSISASLASLTRESGPKVVRGDPAEKKTDGSTTPAYAHGQHHSIFSPATGAVSDSSLKFTHVLYNLSPAELYEQAIKYEKGSFITSNGALATLSGAKTGRAPRDKRVVRDATTEDELWWGKGSPNIEMDEHTFMVNRERAVDYLNSLEKVFVNDQYLNWDPENRIKVRIVSARAYHSLFMHNMCIRPTQEELESFGTPDFTIYNAGQFPCNRYTHYMTSSTSVDLNLARREMVILGTQYAGEMKKGLFSVMHYLMPKRRILSLHSGCNMGKDGDVALFFGLSGTGKTTLSTDHNRYLIGDDEHCWTETGVSNIEGGCYAKCVDLSREKEPDIWNAIKFGTVLENVVFDEHTREVDYSDKSVTENTRAAYPIEFIPNAKIPCVGPHPTNVILLACDAFGVLPPVSKLNLAQTMYHFISGYTALVAGTEDGIKEPTATFSACFGAAFIMLHPTKYAAMLAEKMKSQGATGWLVNTGWSGGSYGVGNRIKLAYTRKIIDAIHSGSLLKANYKKTEIFGFEIPTEIEGIPSEILDPVNSWSDKKAHKDTLVKLGGLFKKNFEVFANHKIGVDGKLTEEILAAGPIF
B2: ansA (Wolinella succinogenes, UniProt P50286); sequence looked up; chain MAKPQVTILATGGTIAGSGESSVKSSYSAGAVTVDKLLAAVPAINDLATIKGEQISSIGSQEMTGKVWLKLAKRVNELLAQKETEAVIITHGTDTMEETAFFLNLTVKSQKPVVLVGAMRSGSSMSADGPMNLYNAVNVAINKASTNKGVVIVMNDEIHAAREATKLNTTAVNAFASPNTGKIGTVYYGKVEYFTQSVRPHTLASEFDISKIEELPRVDILYAHPDDTDVLVNAALQAGAKGIIHAGMGNGNPFPLTQNALEKAAKSGVVVARSSRVGSGSTTQEAEVDDKKLGFVATESLNPQKARVLLMLALTKTSDREAIQKIFSTY
B3: PF1070 1-140 D101A (Pyrococcus furiosus, UniProt Q8U1Y4); sequence looked up; chain MPSSSKSDFSFSTLIIPQHYLRAILKVVSSSSVEVCGFLFGKENRVLKVRFIRNRLNSPVEFEMDPEEMLKALEEAEQENLEVVGIFHSHIACPPIPSGKALEGMKRWPVIWLIVNEKGEYKAWILSEKNKISEVKIVVE
B4: ASAP3 7-282 (Homo sapiens, UniProt Q8TDY4-1); sequence looked up; chain VAEFLAVTAEDLSSPAGAAAFAAKMPRYRGAALAREEILEGDQAILQRIKKAVRAIHSSGLGHVENEEQYREAVESLGNSHLSQNSHELSTGFLNLAVFTREVAALFKNLIQNLNNIVSFPLDSLMKGQLRDGRQDSKKQLEKAWKDYEAKMAKLEKERDRARVTGGIPGEVAQDMQRERRIFQLHMCEYLLKAGESQMKQGPDFLQSLIKFFHAQHNFFQDGWKAAQSLFPFIEKLAASVHALHQAQEDELQKLTQLRDSLRGTLQLESREEHLS
B5: kwaA (Escherichia coli, UniProt P0DW45); sequence looked up; chain MQRNTYNKVGLYILSLAMLFVFIIILTAKIPFCFTSDCSFIGLKKLVLTNIVPIVCFVFFLFSIYFYNRLKNITKYNGQDSVKITSCQSESYESLTFLATYIVPFMGFSFEDMQKNIAYLLLVVVIGIIFIKTDKYYANPTLALFGFKLYRVNILHPGSGETKNLIAISNDVLKVDDNVYYSFFDEFVFIARKKI
B6: RB1CC1 1286-1594 (Homo sapiens, UniProt Q8TDY2); chain SLVAELQEKLQEEKAKFLEQLEEQEKRKNEEMQNVRTSLIAEQQTNFNTVLTREKMRKENIINDLSDKLKSTMQQQERDKDLIESLSEDRARLLEEKKKLEEEVSKLRSSSFVPSPYVATAPELYGACAPELPGESDRSAVETADEGRVDSAMETSMMSVQENIHMLSEEKQRIMLLERTLQLKEEENKRLNQRLMSQSMSSVSSRHSEKIAIRDFQVGDLVLIILDERHDNYVLFTVSPTLYFLHSESLPALDLKPGEGASGASRRPWVLGKVMEKEYCQAKKAQNRFKVPLGTKFYRVKAVSWNKKV
B7: comFB 1-98 K41A (Bacillus subtilis, UniProt P39146); chain MLVNSKEIVMKELLDRYMDQLHMACTCQVCQNDVLALSLNAVSPSYVTDFKKIAYTKAELVDKQKNTAMLVILAESAAVVSESPSDLCQTKQEEAFIN
B8: GFOD1 1-390 (Homo sapiens, UniProt Q9NXC2); sequence looked up; chain MLPGVGVFGTSLTARVIIPLLKDEGFAVKALWGRTQEEAEELAKEMSVPFYTSRIDEVLLHQDVDLVCINLPPPLTRQIAVKTLGIGKNVICDRTATPLDAFRMTSAAHYYPKLMSIMGNVLRFLPAFVRMKQLIEEGYVGEPLVCEVQVHGGSLLGKKYNWSCDDLMGGGGLHSVGTYIIDLLTFLTGQKAVKVHGLLKTFVKQTDHIKGIRQITSDDFCTFQMVLEGGVCCTVTLNFNVPGEFKQDVTVVGSAGRLLAVGTDLYGQRNSAPEQELLVQDATPVSNSLLPEKAFSDIPSPYLRGTIKMMQAVRQAFQDQDDRRTWDGRPLTMAATFDDCLYALCVVDTIKRSSQTGEWQNIAIMTEEPELSPAYLISEAMRRSRMSLYC
B9: tebp-1 167-282 (Caenorhabditis elegans, UniProt O62329); chain DVEISDSFEKAMWNHVSQNAARLTGKFLMTEQFWAELLQSQPNIPIKSAHIVLHHFNEMMLENLWKQAMDPDAKLQILKDLSVPLSYHQRKWILDNDRLDVALSLDGYVVSWDIVR
B10: INHBA 311-426 (Homo sapiens, UniProt P08476); sequence looked up; chain GLECDGKVNICCKKQFFVSFKDIGWNDWIIAPSGYHANYCEGECPSHIAGTSGSSLSFHSTVINHYRMRGHSPFANLKSCCVPTKLRPMSMLYYDDGQNIIKKDIQNMIVEECGCS
B11: POL30 1-258 E113G (Saccharomyces cerevisiae, UniProt P15873); chain MLEAKFEEASLFKRIIDGFKDCVQLVNFQCKEDGIIAQAVDDSRVLLVSLEIGVEAFQEYRCDHPVTLGMDLTSLSKILRCGNNTDTLTLIADNTPDSIILLFEDTKKDRIAGYSLKLMDIDADFLKIEELQYDSTLSLPSSEFSKIVRDLSQLSDSINIMITKETIKFVADGDIGSGSVIIKPFVDMEHPETSIKLEMDQPVDLTFGAKYLLDIIKGSSLSDRVGIRLSSEAPALFQFDLKSGFLQFFLAPKFNDEE
B12: cfbA 1-143 S11Y (Methanocaldococcus jannaschii, UniProt Q58380); chain MEALVLVGHGYRLPYSKELLVKLAEKVKERNLFPIVEIGLMEFSEPTIPQAVKKAIEQGAKRIIVVPVFLAHGIHTTRDIPRLLGLIEDNHEHHHEHSHHHHHHHHHEHEKLEIPEDVEIIYREPIGADDRIVDIIIDRAFGR
B13: EndoA D265R (Drosophila melanogaster, UniProt Q8T390); sequence looked up; chain MAFAGLKKQINKANQYMTEKMGGAEGTKLDMDFMEMERKTDVTVELVEELQLKTKEFLQPNPTARAKMAAVKGISKLSGQAKSNTYPQPEGLLAECMLTYGKKLGEDNSVFAQALVEFGEALKQMADVKYSLDDNIKQNFLEPLHHMQTKDLKEVMHHRKKLQGRRLDFDCKRRRQAKDDEIRGAEDKFGESLQLAQVGMFNLLENDTEHVSQLVTFAEALYDFHSQCADVLRGLQETLQEKRSEAESRPRNEFVPKTLLDLNLRGGGGGLNEDGTPSHISSSASPLPSPMRSPAKSMAVTPQRQQQPCCQALYDFEPENPGELAFKENDIITLLNRVDDNWFEGAVNGRTGYFPQSYVQVQVPLPNGN
B14: TGFBI FAS1-4 domain, residues 502-657 (Homo sapiens, UniProt Q15582); chain AGMGTVMDVLKGDNRFSMLVAAIQSAGLTETLNREGVYTVFAPTNEAFRALPPRERSRLLGDAKELANILKYHIGDEILVSGGIGALVRLKSLQGDKLEVSLKNNVVSVNKEPVAEPDIMATNGVVHVITNVLQPPANRPQERGDELADSALEIFKQA
B15: Saro_1862 1-406 E16K (Novosphingobium aromaticivorans, UniProt Q2G771); chain MTDKPSVLFICTQDTKEEEARFTRAALEAAGVEVVHLDPSVRRSLGGAEISPEMVAQAGGMTIEEVRALGHEGKCQDAMIRGAIAAAHEWDARHPVSGILAVGGSMGSALAGALMQSFPYGLPKLIVSTMASGFTKPYMGVKDIAMMNAVTDISGINTISRDVFRNAANAVAGMAKGYDRDKGPEKPLVLITTLGTTETSVKRIRQALESDGCEVMVFHSSGAGGPTLDGLAADKDVALVLDLSPTEILDHLFGGLADAGPDRGRAALRKGIPTILAPGNADFIIGGPIDAAEAQFPGRRYHQHNPQLTAVRTNVADLRKLADHLAANVREAKGPVRVFTPLKGFSSHDSETGHLLDLSVPGPFAEYLASVMPGHVPVTAVDAHFNDEAFSSAVIAAAREMLAAKN
UniProt P26368, sequence (whole entry, looked up): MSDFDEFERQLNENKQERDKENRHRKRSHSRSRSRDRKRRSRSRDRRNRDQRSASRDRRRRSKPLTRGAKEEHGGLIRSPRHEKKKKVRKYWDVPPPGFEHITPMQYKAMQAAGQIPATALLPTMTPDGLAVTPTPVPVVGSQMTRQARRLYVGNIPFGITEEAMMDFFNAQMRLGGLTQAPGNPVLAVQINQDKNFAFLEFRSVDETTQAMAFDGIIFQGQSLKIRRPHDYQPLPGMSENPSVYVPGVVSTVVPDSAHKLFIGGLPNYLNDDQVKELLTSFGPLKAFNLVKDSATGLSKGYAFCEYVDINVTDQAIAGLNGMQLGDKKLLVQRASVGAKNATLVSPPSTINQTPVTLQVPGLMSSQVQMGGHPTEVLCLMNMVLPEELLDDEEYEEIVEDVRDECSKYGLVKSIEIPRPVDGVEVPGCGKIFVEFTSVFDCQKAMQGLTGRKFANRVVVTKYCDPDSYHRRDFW
UniProt P61889, sequence (whole entry, looked up): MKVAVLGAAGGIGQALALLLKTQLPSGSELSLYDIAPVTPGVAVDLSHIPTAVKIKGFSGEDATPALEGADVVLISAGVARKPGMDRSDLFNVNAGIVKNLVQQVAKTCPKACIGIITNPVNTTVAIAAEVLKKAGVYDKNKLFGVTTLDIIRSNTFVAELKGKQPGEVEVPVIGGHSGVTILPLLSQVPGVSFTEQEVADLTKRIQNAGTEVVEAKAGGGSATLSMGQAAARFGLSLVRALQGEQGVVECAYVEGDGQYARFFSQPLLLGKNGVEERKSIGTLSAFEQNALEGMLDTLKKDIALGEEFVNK
UniProt P29055, sequence (whole entry, looked up): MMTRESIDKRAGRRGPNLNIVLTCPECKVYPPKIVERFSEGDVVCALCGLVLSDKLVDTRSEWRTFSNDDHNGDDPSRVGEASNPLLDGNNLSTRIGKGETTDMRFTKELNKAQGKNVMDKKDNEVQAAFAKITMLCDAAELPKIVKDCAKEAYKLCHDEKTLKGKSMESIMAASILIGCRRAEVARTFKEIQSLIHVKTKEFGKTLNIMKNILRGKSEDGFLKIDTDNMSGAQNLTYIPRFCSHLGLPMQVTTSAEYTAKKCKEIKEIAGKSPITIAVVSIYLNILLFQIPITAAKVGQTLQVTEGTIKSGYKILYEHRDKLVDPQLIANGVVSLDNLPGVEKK

human WDHD1  log2 fold change (CYB5R4 knockout human cells; PP4 interaction, 3xFLAG-PP4C IP-MS; concentration not given; relative to: CYB5R4 KO over parental): 0.5
B1 (PCK1 S62D/T66E)  subunits per oligomer (itself; native PAGE): 6 and 12
B2 (ansA)  subunits per oligomer (itself; SEC-MALS): 4
B3 (PF1070 1-140 D101A)  subunits per oligomer (itself; SEC): 2
B4 (ASAP3 7-282)  subunits per oligomer (itself; SEC-MALS): 2
mdh (Escherichia coli, UniProt P61889)  subunits per oligomer (itself; native MS): 2
B5 (kwaA)  subunits per oligomer (itself; SEC): 4
B6 (RB1CC1 1286-1594)  subunits per oligomer (itself; AUC (sedimentation velocity)): 2
B7 (comFB 1-98 K41A)  subunits per oligomer (itself; SEC-MALS): 2
spectrin beta, non-erythrocytic 1 (human)  log2 fold change (PP6C (human); co-immunoprecipitation, IP-MS; CYB5R4 knockout cells; concentration not given; relative to: CYB5R4 knockout over parental): 0.56
B8 (GFOD1 1-390)  subunits per oligomer (itself; SEC): 2
B9 (tebp-1 167-282)  subunits per oligomer (itself; SEC-MALS): 2
AUUUUAUUC (ssRNA)  Kd (U2AF2 148-342 (Homo sapiens, UniProt P26368); sequencing of bound RNA; RNA; motif only): 2310 nM
B10 (INHBA 311-426)  subunits per oligomer (itself; western blot): 2
B11 (POL30 1-258 E113G)  subunits per oligomer (itself; native gel): 3
CTGCTCCGTCCGCCTTCGAGGAGAGGTCGGCATCTTCAAGTCAATCGGTCC (dsDNA; 5'-amino-C6 primer)  Kd (SUA7 full length assumed (Saccharomyces cerevisiae, UniProt P29055); array; double-stranded DNA, one strand shown; TFIIB alone): 3.93 ± 1.87 nM
B12 (cfbA 1-143 S11Y)  subunits per oligomer (itself; SEC): 2
B13 (EndoA D265R)  subunits per oligomer (itself; SEC-SAXS): 2
B14  subunits per oligomer (itself; cross-linking): 2
APVDSMLKDMATIILSTFLLIGWVAFIITYPLSMH (IRE1α 435-469)  subunits per oligomer (itself; SDS-PAGE; peptide): 2
B15 (Saro_1862 1-406 E16K)  subunits per oligomer (itself; SEC): 2

Repeated from above:
B12 (cfbA 1-143 S11Y)  subunits per oligomer (itself; SEC): 2
B2 (ansA)  subunits per oligomer (itself; SEC-MALS): 4
mdh (Escherichia coli, UniProt P61889)  subunits per oligomer (itself; native MS): 2
B3 (PF1070 1-140 D101A)  subunits per oligomer (itself; SEC): 2
